Results collected from several papers.
Compare with care: the assays were run in different laboratories. ± gives the spread as reported.

`O=C(O)CCCOc1ccc(F)cc1-c1cc(-c2ccccc2C(F)(F)F)n(-c2ccccc2)n1` has a blood chemistry of 9.5 ± 0.4 mg/dL (item: Ca; Crl:CD(SD) rats, female, blood; iv, 25 µg/kg, 1 day).
`CC(=O)c1c(C)c2cnc(Nc3ccc(C4CCN(CCS(C)(=O)=O)CC4)cn3)nc2n(C2CCCC2)c1=O` has a Tmax of 1.17 h (human, plasma; oral, 25 mg once daily, day 1, single dose).
For `C[C@]1(CO)Cc2ncn(-c3ccc(C#N)c(Cl)c3)c2C(=O)O1`, “subjects with drug-related fatigue” read 0% (human; 20 mg multiple doses, fasted).
For `CN1CC[C@@H](c2c(O)cc(O)c3c(=O)cc(-c4ccc(C(F)(F)F)cc4Cl)oc23)[C@@H]1CO`, “patients with adverse event” read 25% (item: Nausea; B-cell malignancies or AML; oral, 50 mg, continuous dosing).
For `Cc1cc(C)c(CNC(=O)c2cc(Cl)c3c(c2C)O[C@@](C)([C@H]2CC[C@H](N(C)C)CC2)O3)c(=O)[nH]1`, the Hypotension incidence was 0% (human, relapsed/refractory NHL; concentration not given, treatment-related TEAEs, grade 5).
The globulin of `CC(C)[C@@H]1NC(=O)CNC(=O)[C@H](CC(N)=O)NC(=O)[C@H](CCCNC(=N)N)NC(=O)[C@H](Cc2ccc(O)cc2)NC(=O)[C@H](C(C)C)NC(=O)[C@@H](NC(=O)[C@@H](NC(=O)[C@H](CC(N)=O)NC(=O)[C@H](Cc2c[nH]c3ccccc23)NC(=O)[C@H](C)NC(=O)[C@H](Cc2ccccc2)NC(=O)CN)C(C)C)CSSC[C@@H](C(=O)N[C@@H](Cc2cnc[nH]2)C(=O)N[C@@H](CCCNC(=N)N)C(=O)N[C@@H](CCCNC(=N)N)C(=O)N[C@@H](C)C(=O)N[C@@H](CC(N)=O)C(N)=O)NC(=O)[C@H](C(C)C)NC(=O)[C@H](CCCNC(=N)N)NC1=O` is reported as 18.9 ± 0.21 g/L (ICR mouse, blood; intramammary, 10 mg/kg, day 5, 3 d dosing).
Under “treatment-emergent adverse events”, `COc1cc(N2CCC(N3CCN(C)CC3)CC2)ccc1Nc1ncnc(Nc2ccccc2S(=O)(=O)C(C)C)n1` is recorded as 5 number (percent) (item: Headache; Japanese patients with solid tumours; oral, dose not given, all grades).
`N[C@@H]1c2ccccc2OC12CCN(c1cnc3c(N4CCCc5ncccc54)n[nH]c3n1)CC2`: “patients with any TEAE” 100% (advanced solid tumour patients; oral, 100 mg once daily).
`O=S(=O)(Nc1ccccc1)c1ccc(NC(=S)Nc2ccccc2)cc1`: “blood cell fraction” 11.7% (item: NE%; female mouse, blood; oral, 20 mg/kg daily, 14 days).
`COc1ccc([C@@H]2CC(=O)c3c(O)cc(O)cc3O2)cc1O` has a urinary recovery of 0.616 ± 0.13% (Sprague-Dawley rat, male, obese, urine; oral, 100 mg/kg neohesperidin, 48 h; relative to: dose).
Under “milk fat partition ratio”, `O=C(O)CNCP(=O)(O)O` is recorded as 0.19 (cow whole milk; 200 nM; relative to: milk fat over skim milk).
For `CC[C@H](C)CCCCC(=O)N[C@@H](CCN)C(=O)N[C@H](C(=O)N[C@@H](CCN)C(=O)N[C@H]1CCNC(=O)[C@H]([C@@H](C)O)NC(=O)[C@H](CCN)NC(=O)[C@H](CCN)NC(=O)[C@H](CC(C)C)NC(=O)[C@@H](CC(C)C)NC(=O)[C@H](CCN)NC1=O)[C@@H](C)O`, “efflux with mucin” read 20% (dialysis; porcine stomach mucin; 4 h, 37 °C, drug alone; relative to: without mucin).
`CC(C)n1c(C2CCNCC2)nc2c([N+](=O)[O-])c(Br)c(Br)cc21`: “grade ≥3 adverse events” 32% (item: Pneumonia; AML patients; dose not given, all doses).
`CO[C@H]1C[C@@H]2CC[C@@H](C)[C@@](O)(O2)C(=O)C(=O)N2CCCC[C@H]2C(=O)O[C@H]([C@H](C)C[C@@H]2CC[C@@H](OC(=O)NCCOCCOCCOCCOCCOCCOCCOCCOCCC(=O)N3CCc4cc(Cn5nc(-c6ccc7oc(N)nc7c6)c6c(N)ncnc65)ccc4C3)[C@H](OC)C2)C[C@@H](O)[C@H](C)/C=C(\C)[C@@H](O)[C@@H](OC)C(=O)[C@H](C)C[C@H](C)/C=C/C=C/C=C/1C` gave a TRAE incidence of 50% (phase 1 dose escalation, item: mucositis; advanced solid tumour patients; intravenous, 12 mg weekly, any grade).
